Measured values pooled from the literature.
Compare with care: the assays were run in different laboratories. ± marks the error that the study gave. In brackets after ≈: the same amount, converted by molar mass.

COc1ccc2occ(/C=C/C(=O)N3CCN(C(=S)SCCN(C)C)CC3)c(=O)c2c1  curative effect (tomato spotted wilt virus; viral infection, half-leaf method; Nicotiana glutinosa; 500 µg/mL): 60.7 ± 3%
CCC12CCc3c(c4ccccc4n3C)CCN(CC3OC31)C2 (stereo not shown)  swimming distance (Danio rerio; larvae; 6, 12 and 25 µM, together with: LPS 2.5 mg/mL): increased
CC(=O)C1=C(O)C=C2Oc3c(C(C)=O)c(O)c(C)c(O)c3[C@@]2(C)C1=O  MIC99 (Trichophyton rubrum; broth microdilution; LM 237; 168 h): 580 µM (≈ 200 µg/mL)
CC(O)(CNC(=O)Nc1cc(-c2ccccc2)ns1)c1ccco1 (stereo not shown)  viability (Zika virus MR766; ZIKV-infected Vero cells; 25 µM, 3 days, unit not given; reference: virus-infected untreated cells, above 1 protective): > 1
O=C(CCCN1C(=O)c2cccc3cccc(c23)C1=O)NO  oocyst excretion (Cryptosporidium parvum; SCID mouse; oral, in diet, 10 mg/kg once daily; reference: untreated infected): decreased
CN(C)CCSC(=S)N1CCN(C(=O)/C=C/c2coc3cc(F)ccc3c2=O)CC1  inactivation effect (tomato spotted wilt virus; viral infection, half-leaf method; Nicotiana glutinosa; 500 µg/mL): 65.6 ± 3.5%
Cn1c(SCCN2CCCC2)nnc1C12CC3CC(CC(C3)C1)C2  inhibition zone (Micrococcus luteus; microbial growth, disc diffusion; IFO3232; 200 µg/disc, 24 h): 11 mm
Oc1cc(C(F)(F)F)ccc1-c1nc2c(C(F)(F)F)cc(C(F)(F)F)cc2[nH]1  colistin MIC (Klebsiella pneumoniae; colistin potentiator; KP I2, colistin-resistant; 5 µM): 2 µg/mL
O=C(/C=C/c1coc2ccccc2c1=O)N1CCN(C(=S)SC2CC2)CC1  inactivation effect (tomato spotted wilt virus; viral infection, half-leaf method; Nicotiana glutinosa; 500 µg/mL): 55.7 ± 2.5%
Oc1ccc(C(F)(F)F)cc1-c1nc2c(Cl)cc(Cl)cc2[nH]1  colistin MIC (Klebsiella pneumoniae; colistin potentiator; KP F9, colistin-resistant; 5 µM): 1 µg/mL
CC(=NNC(=N)N)c1nnn(-c2ccc(C#CC3(O)CCCCC3)cc2)c1C  MBC (Klebsiella pneumoniae; microbial killing; ATCC13883): 31.2 µg/mL (≈ 82.4 µM)
CCN(CC)CCSC(=S)N1CCN(C(=O)/C=C/c2coc3ccccc3c2=O)CC1  inactivation effect (tomato spotted wilt virus; viral infection, half-leaf method; Nicotiana glutinosa; 500 µg/mL): 62.2 ± 1.9%
O=C1CC(c2ccc(O)cc2)Oc2cc(O)cc([O][Ga+][O]c3cc(O)cc4c3C(=O)CC(c3ccc(O)cc3)O4)c21 (stereo not shown)  number of metabolites (Pseudomonas aeruginosa; significantly changed metabolites, GC-MS metabolomics; 16 µM, 4 h): 61

Some of these lines once more:
O=C(/C=C/c1coc2ccccc2c1=O)N1CCN(C(=S)SC2CC2)CC1  inactivation effect (tomato spotted wilt virus; viral infection, half-leaf method; Nicotiana glutinosa; 500 µg/mL): 55.7 ± 2.5%
Oc1ccc(C(F)(F)F)cc1-c1nc2c(Cl)cc(Cl)cc2[nH]1  colistin MIC (Klebsiella pneumoniae; colistin potentiator; KP F9, colistin-resistant; 5 µM): 1 µg/mL
